Measured values of several laboratories.
Lines come from different studies, so protocols differ. Numbers after ± are the reported error.
Cell line: T47D

O=c1ccn(Cc2cn(-c3cc4ccccc4oc3=O)nn2)c(=O)[nH]1 — growth percentage (NCI60 single-dose screen; 10 µM): 97%
Cc1n[nH]c2nc(-c3ccc(Cl)cc3)c3c(NC(=O)c4ccccc4)nnc-3n12 — cell growth (SRB; 10 µM, NCI60 single-dose screen; reference: untreated): 97.6%
Cc1nc(NC(=O)N2CCC[C@H]2C(N)=O)sc1-c1ccnc(C(C)(C)C(F)(F)F)c1 — GR50 (cell growth; 72 h): 67.2 nM
Cc1cc(=O)[nH]c(=O)n1Cc1cn(-c2c3ccccc3nc3ccccc23)nn1 — growth percentage (NCI60 single-dose screen; 10 µM): -5.5%
C=CC(=O)N1CCC(COCC(=O)N2CCN(c3nc(-c4cnc(N)nc4C(F)F)nc(N4CCOC[C@@H]4C)n3)CC2)CC1 — IC50 (FOXO1 translocation, kinase translocation reporter; 2 h): 14.9 nM
C[C@H](Nc1ccc2c(c1)OCCn1cc(N3C(=O)OC[C@H]3C(F)F)nc1-2)C(N)=O — IC50 (growth rate inhibition, CellTiter-Glo; 120 h): 27.4 nM
S=C([S][Au-][P+](CCCCCC[P+]([Au-][S]C(=S)n1cccn1)(c1ccccc1)c1ccccc1)(c1ccccc1)c1ccccc1)n1cccn1 — log10 TGI (cell growth, NCI-60 screen; breast cancer): -4.21
COc1ccc(OC)c(-c2nc3ccc(-c4nc5ccc(N6CCN(C)CC6)cc5[nH]4)cc3[nH]2)c1 — growth percent (SRB; 10 µM, 48 h): 95.2%
C#C[C@@]1(O)[C@@H](CO)O[C@@H](n2ccc3c(N)ncnc32)[C@@H]1O — TGI (SRB; NCI-60 screen): 2140 nM
COC(=O)c1cc(C(C)=NNc2nc(-c3ccc4c(c3)OCCCO4)cs2)ccc1O — cells in G1 phase (flow cytometry; 40 µM, 72 h): 24.3 ± 2.1%
Cn1cncc1C1=CN(c2ncnc3[nH]cnc23)CCS1 — TGI: 129000 nM
C[C@H](Nc1ccc2c(c1)OCCn1cc(N3C(=O)OC[C@H]3C(F)F)nc1-2)C(N)=O — GR50 (cell growth; 72 h): 12.6 nM
O=C(Nc1nnc2[nH]c(=S)[nH]c(-c3ccc(Cl)cc3)c1-2)c1ccccc1 — cell growth (SRB; 10 µM, NCI60 single-dose screen; reference: untreated): 98.2%
CCC(=O)N1CCC(COCC(=O)N2CCN(c3nc(-c4cnc(N)nc4C(F)F)nc(N4CCOC[C@@H]4C)n3)CC2)CC1 — IC50 (S6 phosphorylation, inhibitor, in-cell western, item: phospho-S6 Ser235/236; 2 h): 62.1 nM
CCCCN1CCN(c2ccc3[nH]c(-c4ccc5[nH]c(-c6cc(OC)c(OC)c(OC)c6)nc5c4)nc3c2)CC1 — growth percent (SRB; 10 µM, 48 h): 66%
CC(C)[C@H](NC(=O)c1cc(Cl)ccc1OCCNC(=O)OC(C)(C)C)C(=O)Nc1ccc([N+](=O)[O-])cc1Cl — colony formation (0.1 to 10 µM, 2 weeks): inhibited
CCCCN1CCN(c2ccc3[nH]c(-c4ccc5[nH]c(-c6ccc(C(F)(F)F)cc6)nc5c4)nc3c2)CC1 — growth percent (SRB; 10 µM, 48 h): -37.3%
CCc1oc2cc(S(=O)(=O)Nc3ccc(S(=O)(=O)Nc4nccs4)cc3)ccc2c1C(=O)c1cc(Br)c(O)c(Br)c1 — apoptotic cells (annexin V-FITC/PI flow cytometry; 40 µM, 72 h): 9.72 ± 2.94%
